Results gathered from unrelated publications.
± gives the spread as reported.
Target: Dual specificity mitogen-activated protein kinase kinase 7 (MAP2K7, Homo sapiens, UniProt O14733)
Sequence (O14733 1-419, as in one of the studies): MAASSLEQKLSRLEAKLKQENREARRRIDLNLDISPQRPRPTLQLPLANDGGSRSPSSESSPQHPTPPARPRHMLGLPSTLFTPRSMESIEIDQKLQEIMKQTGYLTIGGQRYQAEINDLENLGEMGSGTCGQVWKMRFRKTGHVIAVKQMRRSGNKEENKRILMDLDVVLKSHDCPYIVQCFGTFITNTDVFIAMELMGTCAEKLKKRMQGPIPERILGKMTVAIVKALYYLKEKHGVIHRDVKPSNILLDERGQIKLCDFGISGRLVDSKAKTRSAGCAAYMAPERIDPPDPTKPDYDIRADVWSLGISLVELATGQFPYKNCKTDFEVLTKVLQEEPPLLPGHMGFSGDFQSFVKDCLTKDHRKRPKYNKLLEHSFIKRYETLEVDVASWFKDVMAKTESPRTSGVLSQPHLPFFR

SMILES	assay	system	conditions	scale	measurement	result
C1=C/COCc2cc(ccc2OCCN2CCCC2)Nc2nccc(n2)-c2cccc(c2)COC/1			concentration not given, gene name MKK7		percent of control	73%
C=CC(=O)N1CCC(COCC(=O)N2CCN(c3nc(-c4cnc(N)nc4C(F)F)nc(N4CCOC[C@@H]4C)n3)CC2)CC1	KINOMEscan		1 µM	reference: DMSO control	remaining binding	74%
COc1cc(Cl)c(C(=O)N[C@@H](CN[C@H]2CC[C@@H](N)CC2)Cc2ccc(C#N)cc2)cc1-c1ccc(CN[C@H](C)c2ccc(C)cc2)o1	enzyme activity, KinaseProfiler panel		1 µM		remaining activity	92%
Cc1cc(Nc2cc(N3CCN(C)CC3)nc(Sc3ccc(NC(=O)C4CC4)cc3)n2)[nH]n1	kinase activity, KinaseProfiler		0.03 µM, species human	reference: control	remaining activity	128%
Cc1ccc(NC(=O)c2ccc(C)c(C(F)(F)F)c2)cc1C#Cc1nn(C2CCC(O)CC2)c2ncnc(N)c12 (stereo not shown)	enzyme activity		10 µM, with: ATP 10 µM		remaining activity	70%
COc1ccc(F)cc1C(=O)NCc1ccc(-c2nn([C@@H](C)C(F)(F)F)c(N)c2C(N)=O)cc1	kinase activity, inhibitor, HotSpot radiometric		1000 nM, with: ATP at Km		remaining activity	103 ± 7.9%
Cc1cc(NC(=O)c2cccc3cc(-c4cccc5[nH]nc(N)c45)ccc23)ccc1F	enzyme activity, kinase profiling panel		0.1 µM		remaining activity	115%
Cc1cnc(NC2CCOCC2)nc1-n1cnc(C(=O)NC(CN)c2cc(F)cc(Cl)c2)c1 (stereo not shown)	radiometric		1 µM		remaining activity	104%
CCN1CCN(Cc2ccc(NC(=O)c3ccc(C)c(/C=C/c4cnc5[nH]ccc5c4OC)c3)cc2C(F)(F)F)CC1		A-375	0.05 µM		inhibition	-21.9%
CNCc1ccc(-c2cc(-c3nc(-c4ccc(S(=O)(=O)C(C)C)cc4)cnc3N)on2)cc1	enzyme activity		0.4 µM, with: ATP at Km		inhibition	0%
C=CC(=O)N1CCC([C@@H]2CCNc3c(C(N)=O)c(-c4ccc(Oc5ccccc5)cc4)nn32)CC1	kinase activity, inhibitor, HotSpot radiometric		100 nM, with: ATP 10 µM		remaining activity	105.1 ± 0.2%
COc1cc(F)ccc1-c1ncnc(Nc2cccc(C[S@](C)(=N)=O)c2)n1	kinase activity		10 µM, with: 10 µM ATP		remaining activity	130%
O=C(NC1CCC1)c1ccc2nc(-c3cccc(NS(=O)(=O)NCCN4CCCCC4)c3)cn2c1	enzyme activity		10 µM		remaining activity	100%

Repeated from above:
SMILES	assay	system	conditions	scale	measurement	result
COc1ccc(F)cc1C(=O)NCc1ccc(-c2nn([C@@H](C)C(F)(F)F)c(N)c2C(N)=O)cc1	kinase activity, inhibitor, HotSpot radiometric		1000 nM, with: ATP at Km		remaining activity	103 ± 7.9%
COc1cc(F)ccc1-c1ncnc(Nc2cccc(C[S@](C)(=N)=O)c2)n1	kinase activity		10 µM, with: 10 µM ATP		remaining activity	130%
